{"data": "Published values gathered from unrelated publications", "note": "Every numbered part comes from another study and shows a few of its results, in no order. “And” joins repeats or separate records; there may be more than shown. Numbers after ± are the reported error.", "chain of UniProt Q8TD08 (whole entry, looked up)": "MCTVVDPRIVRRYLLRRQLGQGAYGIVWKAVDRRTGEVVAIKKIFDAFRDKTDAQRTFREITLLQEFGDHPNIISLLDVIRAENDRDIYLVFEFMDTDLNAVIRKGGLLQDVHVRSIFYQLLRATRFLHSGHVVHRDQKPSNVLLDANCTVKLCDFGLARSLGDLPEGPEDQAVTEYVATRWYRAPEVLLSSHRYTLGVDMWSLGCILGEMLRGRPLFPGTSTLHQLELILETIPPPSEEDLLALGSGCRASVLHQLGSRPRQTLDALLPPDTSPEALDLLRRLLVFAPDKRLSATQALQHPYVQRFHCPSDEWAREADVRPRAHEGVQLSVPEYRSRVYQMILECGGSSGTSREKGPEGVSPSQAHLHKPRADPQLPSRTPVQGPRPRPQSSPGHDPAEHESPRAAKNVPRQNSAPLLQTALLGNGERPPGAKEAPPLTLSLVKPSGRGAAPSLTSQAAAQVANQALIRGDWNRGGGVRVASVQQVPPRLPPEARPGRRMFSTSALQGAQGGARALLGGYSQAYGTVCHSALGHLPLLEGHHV", "chain of UniProt P80192 (whole entry, looked up)": "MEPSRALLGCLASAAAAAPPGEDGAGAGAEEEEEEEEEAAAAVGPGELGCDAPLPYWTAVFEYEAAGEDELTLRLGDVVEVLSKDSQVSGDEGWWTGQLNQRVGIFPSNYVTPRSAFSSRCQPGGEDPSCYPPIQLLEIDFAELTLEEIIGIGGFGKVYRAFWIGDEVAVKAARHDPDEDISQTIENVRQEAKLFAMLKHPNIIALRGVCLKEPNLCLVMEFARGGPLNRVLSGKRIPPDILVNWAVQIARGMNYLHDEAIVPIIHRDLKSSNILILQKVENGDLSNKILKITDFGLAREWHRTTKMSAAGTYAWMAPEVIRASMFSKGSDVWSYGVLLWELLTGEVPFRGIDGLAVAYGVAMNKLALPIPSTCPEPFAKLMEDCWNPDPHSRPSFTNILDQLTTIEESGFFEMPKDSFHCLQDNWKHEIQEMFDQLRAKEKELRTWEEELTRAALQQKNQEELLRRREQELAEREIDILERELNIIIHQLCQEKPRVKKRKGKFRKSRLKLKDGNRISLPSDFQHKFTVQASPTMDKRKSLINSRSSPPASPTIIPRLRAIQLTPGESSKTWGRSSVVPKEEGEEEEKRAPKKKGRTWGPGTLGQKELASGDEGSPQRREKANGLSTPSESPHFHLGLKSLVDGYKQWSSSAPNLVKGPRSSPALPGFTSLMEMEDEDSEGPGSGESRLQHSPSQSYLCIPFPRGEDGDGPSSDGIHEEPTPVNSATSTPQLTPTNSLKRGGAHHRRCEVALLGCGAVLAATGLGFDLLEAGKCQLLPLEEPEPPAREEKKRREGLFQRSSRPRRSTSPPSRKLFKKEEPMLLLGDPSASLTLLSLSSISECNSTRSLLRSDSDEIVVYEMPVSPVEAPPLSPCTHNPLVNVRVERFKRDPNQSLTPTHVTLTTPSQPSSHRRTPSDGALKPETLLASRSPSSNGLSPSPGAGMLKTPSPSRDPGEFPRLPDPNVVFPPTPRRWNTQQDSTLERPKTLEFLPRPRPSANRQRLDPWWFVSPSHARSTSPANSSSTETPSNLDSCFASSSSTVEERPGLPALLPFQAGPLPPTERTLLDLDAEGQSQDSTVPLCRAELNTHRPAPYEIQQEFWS", "chain of UniProt O95747 (whole entry, looked up)": "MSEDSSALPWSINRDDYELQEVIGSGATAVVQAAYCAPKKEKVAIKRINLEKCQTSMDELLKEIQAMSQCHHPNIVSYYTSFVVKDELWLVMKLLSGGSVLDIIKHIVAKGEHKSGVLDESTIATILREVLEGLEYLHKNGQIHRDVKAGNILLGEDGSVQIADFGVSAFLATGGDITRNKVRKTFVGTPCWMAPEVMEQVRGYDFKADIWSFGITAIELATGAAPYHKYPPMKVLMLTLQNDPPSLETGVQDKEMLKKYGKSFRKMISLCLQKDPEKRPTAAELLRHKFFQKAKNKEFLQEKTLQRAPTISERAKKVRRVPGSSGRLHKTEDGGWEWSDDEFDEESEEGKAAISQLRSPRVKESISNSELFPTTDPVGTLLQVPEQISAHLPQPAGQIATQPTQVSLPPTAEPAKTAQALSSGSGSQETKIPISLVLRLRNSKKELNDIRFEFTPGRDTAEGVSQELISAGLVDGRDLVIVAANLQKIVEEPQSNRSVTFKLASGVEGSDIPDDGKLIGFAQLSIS", "chain of UniProt Q96D53 (whole entry, looked up)": "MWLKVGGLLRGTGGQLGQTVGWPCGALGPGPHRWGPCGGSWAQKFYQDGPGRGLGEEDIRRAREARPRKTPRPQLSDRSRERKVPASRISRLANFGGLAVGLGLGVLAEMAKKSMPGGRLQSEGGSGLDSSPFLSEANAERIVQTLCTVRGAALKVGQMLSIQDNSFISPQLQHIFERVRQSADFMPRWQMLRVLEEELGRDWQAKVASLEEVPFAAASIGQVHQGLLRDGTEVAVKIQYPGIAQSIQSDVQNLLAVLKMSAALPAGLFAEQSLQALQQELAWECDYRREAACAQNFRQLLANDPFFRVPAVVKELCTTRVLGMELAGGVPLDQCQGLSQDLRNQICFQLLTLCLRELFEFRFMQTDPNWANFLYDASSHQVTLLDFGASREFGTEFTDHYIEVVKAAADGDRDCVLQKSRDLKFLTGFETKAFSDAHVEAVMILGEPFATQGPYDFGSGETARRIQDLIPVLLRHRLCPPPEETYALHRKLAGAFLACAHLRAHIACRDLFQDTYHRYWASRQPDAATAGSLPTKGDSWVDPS", "chain of UniProt Q15139 (whole entry, looked up)": "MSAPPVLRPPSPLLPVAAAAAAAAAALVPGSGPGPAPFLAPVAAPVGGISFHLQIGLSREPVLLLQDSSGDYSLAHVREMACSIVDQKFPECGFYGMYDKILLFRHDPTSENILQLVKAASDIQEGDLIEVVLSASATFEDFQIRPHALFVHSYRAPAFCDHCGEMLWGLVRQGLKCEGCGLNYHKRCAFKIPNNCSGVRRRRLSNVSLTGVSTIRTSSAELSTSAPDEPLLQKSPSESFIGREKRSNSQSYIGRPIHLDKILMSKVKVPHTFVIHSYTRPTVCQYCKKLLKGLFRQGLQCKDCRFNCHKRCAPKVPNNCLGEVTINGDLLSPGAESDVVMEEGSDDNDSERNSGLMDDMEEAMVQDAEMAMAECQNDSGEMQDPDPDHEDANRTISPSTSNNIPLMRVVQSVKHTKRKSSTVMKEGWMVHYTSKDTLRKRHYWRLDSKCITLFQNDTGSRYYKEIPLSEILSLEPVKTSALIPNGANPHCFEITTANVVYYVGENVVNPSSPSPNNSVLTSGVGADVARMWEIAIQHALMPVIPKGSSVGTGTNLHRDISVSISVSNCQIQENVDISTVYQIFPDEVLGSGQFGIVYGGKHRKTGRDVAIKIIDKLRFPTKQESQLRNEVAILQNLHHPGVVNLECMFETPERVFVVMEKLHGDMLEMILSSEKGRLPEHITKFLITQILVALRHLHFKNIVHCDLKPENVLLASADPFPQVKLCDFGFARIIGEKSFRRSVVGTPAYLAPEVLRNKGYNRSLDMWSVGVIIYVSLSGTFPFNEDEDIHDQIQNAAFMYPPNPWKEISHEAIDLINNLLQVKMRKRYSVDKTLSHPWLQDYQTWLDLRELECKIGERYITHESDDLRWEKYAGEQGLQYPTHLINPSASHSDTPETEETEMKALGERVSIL"}
{"data": "Block 1", "organism": "Plasmodium berghei", "mode": "inhibitor", "cell line": "Huh-7", "strain": "GFP-expressing sporozoites, liver stage", "tested at": "10 µM", "time": "24 h", "reference": "untreated control"}
{"Compound": "CCC(=O)NCC[C@@H]1CCc2ccc3c(c21)CCO3", "infection rate [%]": 1.03}
{"Compound": "O=C1O[C@H]([C@@H](O)CO)C(O)=C1O", "infection rate [%]": 95.5}
{"Compound": "C[C@@H]1CCC[C@H](C)N1NC(=O)c1ccc(Cl)c(S(N)(=O)=O)c1", "infection rate [%]": 92.1}
{"Compound": "NCCS", "infection rate [%]": 99.9}
{"Compound": "Nc1ccc(C(=O)NCC(=O)O)cc1", "infection rate [%]": 86.4}
{"Compound": "Cc1cc(C(C)(C)CC(C)(C)C)ccc1OCCOCC[N+](C)(C)Cc1ccccc1", "infection rate [%]": 7.17}
{"Compound": "C[C@H](CS)C(=O)N1CCC[C@H]1C(=O)O", "infection rate [%]": 96}
{"Compound": "CN(C)CCc1c[nH]c2ccc(CS(=O)(=O)N3CCCC3)cc12", "infection rate [%]": 110}
{"Compound": "C[C@]12CC[C@@H]3c4ccc(O)cc4CC[C@H]3[C@@H]1C[C@@H](O)[C@@H]2O", "infection rate [%]": 107}
{"Compound": "CC(=O)Oc1ccc2c(c1)CC[C@@H]1[C@@H]2CC[C@]2(C)[C@@H](O)CC[C@@H]12", "infection rate [%]": 138}
{"Compound": "CNC[C@H](O)c1ccc(O)c(O)c1", "infection rate [%]": 117}
{"data": "Block 2", "target": "Bromodomain-containing protein 4, BD1 (BRD4, Homo sapiens, UniProt O60885)", "mode": "binding", "method": "isothermal titration calorimetry", "temperature": "15 °C"}
{"SMILES": "Cc1cnc(Nc2ccc(OCCN3CCCC3)cc2)nc1Nc1cccc(S(=O)(=O)NC(C)(C)C)c1", "ΔH": "-5.28 ± 0.03 kcal/mol"}
{"SMILES": "Cc1cnc(Nc2ccc(N3CCN(C)CC3)cc2)nc1Nc1cccc(S(=O)(=O)NC(C)(C)C)c1", "ΔH": "-7.15 ± 0.01 kcal/mol"}
{"SMILES": "CC(C)CCN1c2nc(Nc3cc(F)c(O)c(F)c3)ncc2N(C)C(=O)C1C (stereo not shown)", "ΔH": "-10.9 ± 0.02 kcal/mol"}
{"SMILES": "CC[C@@H]1C(=O)N(C)c2cnc(Nc3ccc(C(=O)N[C@H]4CC[C@H](N5CCN(CC6CC6)CC5)CC4)cc3OC)nc2N1C(C)C", "ΔH": "-8.5 ± 0.04 kcal/mol"}
{"data": "Block 3", "Structure (SMILES)": "CNC(=O)Nc1ccc2c(c1)CC[C@@]21OC(=O)N(CC(=O)N(Cc2ccc(F)cc2)[C@@H](C)C(F)(F)F)C1=O", "effect on": "cell-free assay", "method": "competition with immobilised ligand", "tested at": "1 µM"}
{"target": "CASK (Homo sapiens, UniProt O14936)", "remaining binding": "86%"}
{"target": "Tyrosine-protein kinase ABL1, non-phosphorylated (ABL1, Homo sapiens, UniProt P00519, Q252H)", "remaining binding": "72%"}
{"target": "RET (Homo sapiens, UniProt P07949, V804L)", "remaining binding": "91%"}
{"target": "EGFR (Homo sapiens, UniProt P00533)", "remaining binding": "100%"}
{"target": "COQ8B (Homo sapiens, UniProt Q96D53)", "remaining binding": "100%"}
{"target": "MAP2K3 (Homo sapiens, UniProt P46734)", "remaining binding": "71%"}
{"target": "MAPK15 (Homo sapiens, UniProt Q8TD08)", "remaining binding": "74%"}
{"target": "SIK3 (Homo sapiens, UniProt Q9Y2K2)", "remaining binding": "94%"}
{"target": "OXSR1 (Homo sapiens, UniProt O95747)", "remaining binding": "80%"}
{"target": "LCK (Homo sapiens, UniProt P06239)", "remaining binding": "84%"}
{"target": "IRAK4 (Homo sapiens, UniProt Q9NWZ3)", "remaining binding": "78%"}
{"target": "MAP2K5 (Homo sapiens, UniProt Q13163)", "remaining binding": "83%"}
{"target": "MAP3K10 (Homo sapiens, UniProt Q02779)", "remaining binding": "57%"}
{"target": "EPHA6 (Homo sapiens, UniProt Q9UF33)", "remaining binding": "79%"}
{"target": "MAPK13 (Homo sapiens, UniProt O15264)", "remaining binding": "83%"}
{"target": "Non-receptor tyrosine-protein kinase TYK2, JH2 (TYK2, Homo sapiens, UniProt P29597)", "remaining binding": "86%"}
{"target": "MAP3K13 (Homo sapiens, UniProt O43283)", "remaining binding": "68%"}
{"target": "PRKD1 (Homo sapiens, UniProt Q15139)", "remaining binding": "99%"}
{"target": "Ribosomal protein S6 kinase alpha-5, N-terminal kinase domain (RPS6KA5, Homo sapiens, UniProt O75582)", "remaining binding": "97%"}
{"target": "CDK3 (Homo sapiens, UniProt Q00526)", "remaining binding": "100%"}
{"target": "MAP3K9 (Homo sapiens, UniProt P80192)", "remaining binding": "89%"}
{"target": "CSK (Homo sapiens, UniProt P41240)", "remaining binding": "100%"}
{"data": "Block 4", "cell line": "mouse MPNST tumor cells", "method": "high-content nuclear imaging", "item": "cell number", "tested at": "10 µM", "time": "12 h", "setting": "mean of 2 replicates", "reference": "plate mean", "reading": "higher = more cells"}
{"Compound": "O=C1CCC(N2C(=O)c3ccccc3C2=O)C(=O)N1 (stereo not shown)", "nuclei count": "1.47 z-score and -0.71 z-score"}
{"Compound": "CCN(CC)CCCC(C)Nc1ccnc2cc(Cl)ccc12 (stereo not shown)", "nuclei count": "2.36 z-score and 2.17 z-score and 4.02 z-score"}
{"Compound": "O=C(NCc1ccc(OC(F)(F)F)cc1)C1c2ccccc2C(=O)N1C1CCOCC1 (stereo not shown)", "nuclei count": "0.68 z-score"}
{"Compound": "Cc1cc(C(C)(C)CC(C)(C)C)ccc1OCCOCC[N+](C)(C)Cc1ccccc1", "nuclei count": "-4.26 z-score"}
{"Compound": "C[N+]1(C)CCC(OC(=O)C(O)(c2ccccc2)C2CCCC2)C1 (stereo not shown)", "nuclei count": "1.04 z-score"}
{"Compound": "N#Cc1cc(C2=Nc3ccc(Br)cc3NC(=O)C2)ccn1", "nuclei count": "-0.396 z-score"}
{"Compound": "C[C@@H](O)[C@H]1C(=O)N2C(C(=O)O)=C(S[C@@H]3CN[C@H](C(=O)N(C)C)C3)[C@H](C)[C@H]12", "nuclei count": "1.56 z-score"}
{"Compound": "C=CCOC(Cn1ccnc1)c1ccc(Cl)cc1Cl (stereo not shown)", "nuclei count": "-0.246 z-score"}
{"Compound": "CN1CCN(c2nc(-c3ccc(C(=O)NC4(C(=O)NCC#N)CCCCC4)cc3)cs2)CC1", "nuclei count": "2.35 z-score"}
{"note": "For quick reference, copied from above (block 3):"}
{"target": "Tyrosine-protein kinase ABL1, non-phosphorylated (ABL1, Homo sapiens, UniProt P00519, Q252H)", "remaining binding": "72%"}
{"target": "RET (Homo sapiens, UniProt P07949, V804L)", "remaining binding": "91%"}
{"target": "EGFR (Homo sapiens, UniProt P00533)", "remaining binding": "100%"}
{"target": "COQ8B (Homo sapiens, UniProt Q96D53)", "remaining binding": "100%"}
{"target": "MAP2K3 (Homo sapiens, UniProt P46734)", "remaining binding": "71%"}
{"target": "MAPK15 (Homo sapiens, UniProt Q8TD08)", "remaining binding": "74%"}
